Assay results from different studies.
Parts stem from different laboratories: compare values within a part only. Several values in a cell are separate wells, animals, samples, runs or records.
Chain of UniProt O00141 (whole entry, looked up): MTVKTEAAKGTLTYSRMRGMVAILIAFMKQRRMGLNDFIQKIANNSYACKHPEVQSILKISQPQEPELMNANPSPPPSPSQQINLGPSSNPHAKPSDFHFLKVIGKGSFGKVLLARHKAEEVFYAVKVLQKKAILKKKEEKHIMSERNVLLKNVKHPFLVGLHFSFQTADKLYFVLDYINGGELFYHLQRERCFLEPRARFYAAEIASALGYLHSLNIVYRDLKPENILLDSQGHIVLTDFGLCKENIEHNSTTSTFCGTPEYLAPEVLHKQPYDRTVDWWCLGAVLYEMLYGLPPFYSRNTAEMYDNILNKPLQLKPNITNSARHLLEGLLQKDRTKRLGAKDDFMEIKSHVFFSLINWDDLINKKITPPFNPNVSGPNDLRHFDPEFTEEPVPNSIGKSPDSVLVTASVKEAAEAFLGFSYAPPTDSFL

Block 1 — mode: antagonist
Target: Beta-1 adrenergic receptor (ADRB1, Homo sapiens, UniProt P08588)
Chain of UniProt P08588 (whole entry, looked up): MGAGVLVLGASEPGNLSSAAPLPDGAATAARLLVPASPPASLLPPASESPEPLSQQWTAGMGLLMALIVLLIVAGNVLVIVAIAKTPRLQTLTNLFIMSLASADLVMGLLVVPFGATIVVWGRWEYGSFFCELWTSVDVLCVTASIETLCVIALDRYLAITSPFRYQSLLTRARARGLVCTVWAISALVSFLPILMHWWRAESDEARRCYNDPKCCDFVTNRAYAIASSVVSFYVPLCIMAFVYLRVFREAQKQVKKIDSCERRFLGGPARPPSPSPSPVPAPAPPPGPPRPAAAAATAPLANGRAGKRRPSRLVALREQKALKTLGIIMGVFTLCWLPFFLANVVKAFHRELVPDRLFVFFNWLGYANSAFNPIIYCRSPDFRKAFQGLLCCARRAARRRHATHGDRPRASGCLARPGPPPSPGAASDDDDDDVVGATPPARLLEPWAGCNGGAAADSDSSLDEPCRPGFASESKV
Compound	IC50 [µM]
CC(O)CN1CCN(c2cnc3ccccc3n2)CC1C (stereo not shown)	≥ 100
Cc1c[nH]c(=O)n(CCCN2CCN(c3ccccc3OCC(F)(F)F)CC2)c1=O	≥ 100
O=C(C1CCOCC1)N1CCCn2nc(C(O)c3ccccc3)cc2C1 (stereo not shown)	≥ 100
O=c1c(Cl)c(NC(c2ccccc2)c2cccs2)cnn1-c1ccccc1 (stereo not shown)	≥ 100
COc1ccc(CN2C(=O)COC[C@@H]2[C@H](O)c2ccc(NC(=O)Cc3ccccc3)cc2)cc1	≥ 100
CC(C)Oc1ccc(C(=O)N[C@H](CNC(=O)CN(C)C)Cc2ccc(-c3cn4cccc([C@H](C)O)c4n3)cc2)cc1Cl	≥ 100
CN(c1cc(=O)c2ccnc(Nc3ccn(C)n3)c2o1)C1CCOCC1	≥ 100
CN(C)c1ccc2nc3ccc(=[N+](C)C)cc-3sc2c1	11.2

Block 2 — cell line: mouse MPNST tumor cells; method: high-content immunofluorescence imaging; refers to: nuclear SOX9; concentration: 10 µM; time: 12 h; setting: mean of 2 replicates; reference: DMSO control; reading: higher = more nuclear SOX9
SMILES	nuclear SOX9 intensity
CCOC(=O)[C@H](Cc1ccc([N+](=O)[O-])cc1)NC(=O)c1ccccc1	103 % of DMSO
CC(C)COCC(CN(Cc1ccccc1)c1ccccc1)N1CCCC1 (stereo not shown)	205 % of DMSO
CC(=O)Nc1c(I)c(C(=O)N[C@H]2C(O)O[C@H](CO)[C@@H](O)[C@@H]2O)c(I)c(N(C)C(C)=O)c1I (stereo partly shown)	112 % of DMSO
CC(C)(C)NCC(O)COc1cccc2c1CC(O)C(O)C2 (stereo not shown)	111 % of DMSO
COc1ccccc1N1CCN(CCCNc2cc(=O)n(C)c(=O)n2C)CC1	107 % of DMSO
O=C(C1CCCCC1)N1CC(=O)N2CCc3ccccc3C2C1 (stereo not shown)	97.9 % of DMSO and 97.4 % of DMSO
O=C(Nc1ccc(-c2ccncc2)cc1)N[C@H](CO)c1ccccc1	119 % of DMSO
CC(C)[N+](C)(CCOC(=O)C1c2ccccc2Oc2ccccc21)C(C)C	98.1 % of DMSO

Block 3 — organism: Sarcocystis neurona; observed: parasite growth; concentration: 10 µM; time: 96 h
SMILES	inhibition
CC(C[N+](C)(C)C)OC(N)=O (stereo not shown)	-12.1%
CCOC(=O)[C@H](CCc1ccccc1)N[C@@H](C)C(=O)N1CCC[C@H]1C(=O)O	-7.5%
CN1[C@@H]2CC[C@H]1C[C@@H](OC(=O)C(CO)c1ccccc1)C2 (stereo partly shown)	-14%
Clc1ccc2c(c1)C(N1CCNCC1)=Nc1ccccc1O2	-9%
C[C@]12CCC(=O)C=C1CC[C@@H]1[C@@H]2[C@@H](O)C[C@@]2(C)[C@H]1CC[C@]2(O)C(=O)CO	0.9%
CCCC(=O)Nc1ccc(OCC(O)CNC(C)C)c(C(C)=O)c1 (stereo not shown)	-17.9%
CN(C)CC/C=C1/c2ccccc2COc2ccc(CC(=O)O)cc21	-2.9%
CCCCNC(=O)NS(=O)(=O)c1ccc(C)cc1	-18.1%

Mixed results
Compound	target	observed	method	concentration	endpoint	result
Cn1cncc1[C@](O)(COc1ccc(C#N)cc1-c1ccc(OC(F)(F)F)cc1)c1ccc(C#N)cc1	Serine/threonine-protein kinase Sgk1 (SGK1, Homo sapiens, UniProt O00141)	cell-free assay	competition with immobilised ligand	1 µM	remaining binding	76%

Repeated from above (block 1):
Compound	IC50 [µM]
CC(C)Oc1ccc(C(=O)N[C@H](CNC(=O)CN(C)C)Cc2ccc(-c3cn4cccc([C@H](C)O)c4n3)cc2)cc1Cl	≥ 100
CN(c1cc(=O)c2ccnc(Nc3ccn(C)n3)c2o1)C1CCOCC1	≥ 100
CN(C)c1ccc2nc3ccc(=[N+](C)C)cc-3sc2c1	11.2
